Measurements of several laboratories.
Each numbered part is a random draw from the data of one study; scales do not carry over between parts. Changes are numbered by the printed parent chain.

Study 1
Target: CCNA1, cyclin fold, Cln2 fusion (human)
Method: yeast growth competition, sequencing
Matrix: yeast
Notes: weak parent motif
Reference: not given
Reading: higher = stronger binding
Parent: CDC25A docking peptide (human); PPHRRRLLFACSP
| Substitution | normalised enrichment score |
| --- | --- |
| PPHRRRLLFACSV [P13V] | 0.312 |
| PTHRRRLLFACSP [P2T] | 0.629 |
| PPHRRRLLFACQP [S12Q] | 0.12 |
| PPHRRRLLWACSP [F9W] | 0.232 |
| PPHRRRLLFACDP [S12D] | 0.321 |
| PPWRRRLLFACSP [H3W] | 0.199 |
| YPHRRRLLFACSP [P1Y] | 0.202 |
| PPHRRRLLIACSP [F9I] | 0.34 |

Study 2
Target: Fragile X messenger ribonucleoprotein 1, C-terminal low-complexity region (Fmr1, Mus musculus, UniProt P35922)
Method: RNA Bind-n-Seq
Molecule type: RNA
Matrix: in vitro
Concentration: 200 nM
Notes: whole 134-nt RNA, ends assumed
Added: 150 mM LiCl
Reference: input library
Reading: higher = stronger binding
Each molecule: 7-deaza-guanosine replaces G
Shared flanks, not repeated: GGGAGUUCUACAGUCCGACGAUC … UGGAAUUCUCGGGUGUCAAGG
| Sequence | log2 enrichment |
| --- | --- |
| GCAGGAAGUAAAAACAAAUGGAAAUGCUUCGGAUAGUGGCAGGGGUGGGGGUUGCUAAGGAAAGGGUGGGAUGGGAAAGGGUAAAGAGUU | 1.7 |
| UCCUGUGCUACACAUCGUAUGUACCGAAUCGGGGCCCCCGGCCCCCGGGGCCCCCGGGGAAAGUAUUAUGUUACGCCGUUCGGAUCUGCA | -2.84 |
| CAAGUCCUGUGCUACACAUCGUAUGUACCGAAUCGGGAAAGGGGAAAGGAAAGGGGAAAGUAUUAUGUUACGCCGUUCGGAUCUGCACUU | -0.711 |
| UUCCCACAGCCCAAAAAUCUUCUCAACAGUGUGAUUGGAAGAGCCCUCGGCAUCUCACAUGCAAAAGACAAACUAGUCUACGUGCACACA | 0.431 |
| AGUCCUGUGCUACACAUCGUAUGUACCGAAUCGGGUGGGUUUUUUUGGGUUUUUGGGAAAGUAUUAUGUUACGCCGUUCGGAUCUGCACU | -0.919 |
| UCCUCAAGUCCUGUGCUACACAUCGUAUGUACCGAAUCGGAAGGAAGGAAGGAAAGUAUUAUGUUACGCCGUUCGGAUCUGCACUUCCAG | -0.0131 |
| ACCAUGCAGGUGGGCAUCUUUGGGUAGUGGGGCAAGGGGGGGAUAGGGAGGGGGGUAACACUUUGGGAACAGGUGGUCCCAGGUCGUUUC | 1.39 |

Study 3
Target: ABI1, truncated, D143A, DHFR fusion (Arabidopsis thaliana)
Method: DHFR PCA, deep sequencing
Matrix: yeast
Notes: methotrexate growth selection, single substitutions
Added: (+)-ABA 0.032 µM
Reference: wild-type fitted maximum
Reading: higher = stronger binding
Parent: PYL1, truncated, DHFR fusion (Arabidopsis thaliana); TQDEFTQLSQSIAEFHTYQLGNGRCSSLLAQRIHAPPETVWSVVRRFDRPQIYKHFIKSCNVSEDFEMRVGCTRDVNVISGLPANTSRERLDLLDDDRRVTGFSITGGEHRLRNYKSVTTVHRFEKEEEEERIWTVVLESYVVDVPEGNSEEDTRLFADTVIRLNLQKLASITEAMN; partner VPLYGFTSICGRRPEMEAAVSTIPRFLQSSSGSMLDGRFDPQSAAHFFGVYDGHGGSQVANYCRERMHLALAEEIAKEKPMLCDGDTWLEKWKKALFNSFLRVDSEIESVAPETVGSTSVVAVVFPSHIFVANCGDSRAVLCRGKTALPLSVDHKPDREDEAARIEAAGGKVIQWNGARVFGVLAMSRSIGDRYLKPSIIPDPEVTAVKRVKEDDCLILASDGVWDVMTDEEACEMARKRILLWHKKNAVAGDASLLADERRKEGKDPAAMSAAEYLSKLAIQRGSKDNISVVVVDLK
| Substitution | relative binding score |
| --- | --- |
| T160V | -3.19% |
| F66M | -2.39% |
| D75F | 22.4% |
| T73S | 2.76% |
| S80F | 57.7% |
| C60I | -0.369% |

Single results of other studies
| Substance | target | assay | test system | conditions | how to read | measurement | value |
| --- | --- | --- | --- | --- | --- | --- | --- |
| PhoQ, residues 284 288 289 292 302 303 TNSAEL | PhoP, residues 12 14 15 18 19 IFFTR (Escherichia coli, UniProt P23836) | Sort-seq, measured: YFP reporter | E. coli | PhoQ-PhoP variant library, added: 10 µM Mg2+ | reference: high Mg2+ state, higher = stronger signaling | fold induction | 20.7 |

Repeated from above (single results of other studies):
| Substance | target | assay | test system | conditions | how to read | measurement | value |
| --- | --- | --- | --- | --- | --- | --- | --- |
| PhoQ, residues 284 288 289 292 302 303 TNSAEL | PhoP, residues 12 14 15 18 19 IFFTR (Escherichia coli, UniProt P23836) | Sort-seq, measured: YFP reporter | E. coli | PhoQ-PhoP variant library, added: 10 µM Mg2+ | reference: high Mg2+ state, higher = stronger signaling | fold induction | 20.7 |
